# Experimental data pooled from the literature.
# Numbers after ± are the reported error.
SMILES,test,test system,setting,how to read,endpoint,value
[2H]C([2H])([2H])Oc1cc2c(cc1OC([2H])([2H])[2H])C1CC(=O)C(CC(C)C)CN1CC2 (stereo not shown),measured: deuterated α-HTBZ,"healthy human volunteers, plasma","oral, 18 mg single dose, standard meal",,dose-normalized Cmax,1.6 ng/mL
Cc1cc(NS(=O)(=O)c2ccc(N)cc2)no1,mitochondrial swelling,BALB/cByJ female mouse liver mitochondria,"30 min, added: succinate + rotenone",relative to: CaCl2 maximal swelling,EC20,> 400 µM
CS(=O)(=O)n1cc2c(n1)CN([C@H]1CO[C@H](c3cc(F)ccc3F)[C@@H](N)C1)C2,,"healthy male human, plasma","oral, 100 mg, fasted single dose",,AUC(0-last),88.6 µM·h
COc1cccc(-c2ccc(NC(=O)C3=C(C(=O)O)CCC3)c(F)c2)c1,,"male human, plasma","oral, 10 mg, single dose, fed, healthy volunteers",,Vd/F,9.02 L
Cn1c(-c2ccc(C(N)=O)cc2F)nnc1C(C)(C)Oc1c(F)cc(Cl)cc1F,,"healthy young Japanese subjects, plasma","oral, 50 mg once daily, day 18, 14 days dosing",,AUC(0-tau) median,7.62 µg·h/mL
OC(Cn1cncn1)(Cn1cncn1)c1ccc(F)cc1F,mitochondrial swelling,BALB/cByJ female mouse liver mitochondria,"30 min, added: succinate + rotenone",relative to: CaCl2 maximal swelling,EC20,> 400 µM
CNCc1ccc(-c2[nH]c3cc(F)cc4c3c2CCNC4=O)cc1,,"human patients, plasma","oral, 360 mg twice daily, day 1, 12 h, arithmetic mean",,AUC(0-t),4.86 µg·h/mL
NC(=O)CC[C@@H]1NC(=O)[C@H](Cc2ccccc2)NC(=O)[C@H](Cc2ccc(O)cc2)NC(=O)CCSSC[C@@H](C(=O)N2CCC[C@H]2C(=O)N[C@H](CCCN=C(N)N)C(=O)NCC(N)=O)NC(=O)[C@H](CC(N)=O)NC1=O,UPLC-MS/MS,human plasma,"3.05 pg/mL, 30 days, -20 °C",,long-term stability,109%
CNC(=C[N+](=O)[O-])NCCSCc1ccc(CN(C)C)o1,mitochondrial swelling,BALB/cByJ female mouse liver mitochondria,"30 min, added: succinate + rotenone",relative to: CaCl2 maximal swelling,EC20,> 400 µM
COc1cccc(N2CCN(C3=Nc4c(F)cccc4[C@H](CC(=O)O)N3c3cc(C(F)(F)F)ccc3OC)CC2)c1,UHPLC-MS/MS,"healthy women, plasma","intravenous infusion, 120 mg single dose, 30 min infusion, HPβCD formulation",,clearance,157 ± 45.1 mL/min

# Some of these lines once more:
SMILES,test,test system,setting,how to read,endpoint,value
Cn1c(-c2ccc(C(N)=O)cc2F)nnc1C(C)(C)Oc1c(F)cc(Cl)cc1F,,"healthy young Japanese subjects, plasma","oral, 50 mg once daily, day 18, 14 days dosing",,AUC(0-tau) median,7.62 µg·h/mL
